Experimental data pooled from the literature.
In brackets after ≈: the same amount, converted by molar mass.
Organism: Enterococcus faecalis

With `Cc1ccc2[nH]nc(-c3nnc(Nc4ccc(F)cc4Cl)s3)c2c1` the MIC was 3.2 µg/mL (≈ 8.89 µM) (ATCC 2942).
For `CN[C@H](CC(C)C)C(=O)N[C@H]1C(=O)N[C@@H](CC(N)=O)C(=O)N[C@H]2C(=O)N[C@H]3C(=O)N[C@H](C(=O)N[C@H](C(=O)O)c4cc(O)cc(O)c4-c4cc3ccc4O)[C@H](O)c3ccc(c(Cl)c3)Oc3cc2cc(c3O[C@@H]2O[C@H](CO)[C@@H](O)[C@H](O)[C@H]2O[C@H]2C[C@](C)(N)[C@H](O)[C@H](C)O2)Oc2ccc(cc2Cl)[C@H]1O`, the MIC50 was 1 µg/mL (≈ 0.69 µM) (ATCC 29212; 1 strain).
`CCCNc1nc(N(C)C)c2c(c1O)C(=O)C1=C(O)[C@]3(O)C(=O)C(C(N)=O)=C(O)[C@@H](N(C)C)[C@@H]3C[C@@H]1C2.Cl.Cl` has an MIC of over 32 µg/mL (broth microdilution CLSI; ATCC 29212).
With `CC(=O)NC[C@H]1CN(c2ccc(N3CCOCC3)c(F)c2)C(=O)O1` the MIC50 was 4 µg/mL (≈ 11.9 µM) (vancomycin-intermediate, 10 isolates; pH 8.5).
`Cc1ccc2[nH]nc(-c3nnc(Nc4ccc(Cl)c(Cl)c4)s3)c2c1` gave an MIC of 82 µg/mL (≈ 218 µM) (ATCC 2942).
For `O=C(O)c1ccc(-n2cc(CNc3ccc(Cl)c(C(F)(F)F)c3)c(-c3cccc(F)c3)n2)cc1`, the biofilm MIC was 2 × planktonic MIC (ATCC 29212; 24 h, preformed biofilm).
`CN[C@H](CC(C)C)C(=O)N[C@H]1C(=O)N[C@@H](CC(N)=O)C(=O)N[C@H]2C(=O)N[C@H]3C(=O)N[C@H](C(=O)N[C@H](C(=O)O)c4cc(O)cc(O)c4-c4cc3ccc4O)[C@H](O)c3ccc(c(Cl)c3)Oc3cc2cc(c3O[C@@H]2O[C@H](CO)[C@@H](O)[C@H](O)[C@H]2O[C@H]2C[C@](C)(N)[C@H](O)[C@H](C)O2)Oc2ccc(cc2Cl)[C@H]1O` has an MIC50 of 4 µg/mL (≈ 2.76 µM) (intermediate susceptibility; 50% serum, 10 isolates).
Under “number of isolates”, `Cc1c2c(nn1C)CSCc1cc(n(C)n1)CSc1cc(c3ccccc3c1)OCCCc1c(C(=O)O)n(C)c3c-2c(Cl)ccc13` is recorded as 17 (broth microdilution MIC; 25 µM).
`O=C(O)c1ccc(-n2cc(CNc3cc(Br)cc(C(F)(F)F)c3)c(-c3ccc(F)c(F)c3)n2)cc1` has an MBEC of 2 × MIC (ATCC 29212; biofilm, Calgary device).
`Cc1cc(O)cc(Nc2nnc(-c3n[nH]c4ccc(C)cc34)s2)c1` has an MIC of 82.9 µg/mL (≈ 246 µM) (ATCC 2942).
The MIC90 of `CC1(C)S[C@@H]2[C@H](NC(=O)[C@H](N)c3ccccc3)C(=O)N2[C@H]1C(=O)O` is reported as over 128 µg/mL (agar dilution; vancomycin-intermediate; 20 isolates).
The MBEC of `O=C(O)c1ccc(-n2cc(CNc3cc(Br)cc(C(F)(F)F)c3)c(-c3cccc(F)c3)n2)cc1` is reported as 4 × MIC (ATCC 29212; biofilm, Calgary device).
`c1ccc(CN(CCN(Cc2ccccn2)Cc2ccccn2)Cc2ccccn2)nc1` gave an MBEC of over 2000 µM (Calgary Biofilm Device; OG1RF, established biofilm; 24 h).
The MIC of `C=C/C=C(\C)CC[C@@H]1C[C@@H](O)CC(=O)O1` is reported as 64 µg/mL (≈ 304 µM) (broth microdilution; KCTC 3511).

A few entries again:
The MIC of `C=C/C=C(\C)CC[C@@H]1C[C@@H](O)CC(=O)O1` is reported as 64 µg/mL (≈ 304 µM) (broth microdilution; KCTC 3511).
